Results collected from several papers.
Numbered parts are unrelated; each lists some results of a single study.

Set 1
Target: RNA binding protein fox-1 homolog 2, RRM domain, GST-SBP tag (RBFOX2, Homo sapiens, UniProt O43251-10, residues 100-194)
Technique: RNA Bind-n-Seq
Molecule type: RNA
Medium: in vitro
Tested at: 365 nM
Setting: natural RNA segment, single round, ends assumed
Reference: no-protein control
Direction: higher = stronger binding
Shared flanks, not repeated: GGGAGUUCUACAGUCCGACGAUC … UGGAAUUCUCGGGUGCCAA
Construct (chain): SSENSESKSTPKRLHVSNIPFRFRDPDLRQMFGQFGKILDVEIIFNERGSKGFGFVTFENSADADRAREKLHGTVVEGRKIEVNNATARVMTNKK
`CAUUUAGAAGUUAGAACAGAAAACAAAAAUGCCAGUCAGGCCUCUUCUCCCCAGGUGUACCAUUUUAGCAUAUGCAUUAUGUGAUUGGAAUUGAGGCAUUUUAGUGGACA` — result for “RBNS enrichment (R)”: 0.712.
`CUCUUACCAGAGCUGGCUGGCCCACGGCUGGUUUUUCAAACUGAGUGAGCCCCGUAGUGAUGGCCUCUGCCUUGUGCUUGGCCUUCCCCAUUGCCUGCACCUGAAACAGC`: “RBNS enrichment (R)” 0.36.
`AAGCUGCAUAUAACUAGCAAUAACUACAUUGAACGGUGUGCAUUGUUCAUGAUUGUUGUGUUUUAAGACUUGUAUAUAAACUGCUUUUUCCAAACUCUGUAUAACUUUUA`: “RBNS enrichment (R)” 0.341.
`AAGUCUCUGAGAGGAGGCUGAAGAGUGUUGGGGCUCCUGGGACAUACAUGUAGAGUUCCUAGCAAAGUGGGCGCCUUUCUCGUCCACAGCAUUUAAAGAGAGGAAGGAGA` — result for “RBNS enrichment (R)”: 1.3.
`CACACCUGGCCAAGAAUACCACUUUUGAAGUUAAUCCUUUUGUGUGAUACAGGAUGAACUUGGGAUGUUUGAACCCUGGACAUUCCAAAUAAAGAAUAGGCCCCUGCCUG`: “RBNS enrichment (R)” 0.472.
Under “RBNS enrichment (R)”, `CUUAAGAGCCAGAGCCAUAUAAGCAUCUUGGGAAAGCAAGUUUGAACCAGCUGCUGGUGUAAUGUACAGUUAUAUUUGUCUAUAAAUGGAGCUGUUUAUGGCAAUUUAAU` is recorded as 0.933.
For `CCGGACCUCAGCGUGGGGGAGCCUCCAGGCAGACGCUGGGUAUGGAGCUGUGGUGUGGUCUGUCCUGUAUGGUGGCCAGUGCUUUCUGCCAGCAUUUCUGGAUGGAUAUA`, “RBNS enrichment (R)” read 0.352.
Under “RBNS enrichment (R)”, `AACUCCUGGCACAGUGUUCCUAGACCCCCAGGCUGCAUGGGGGACAGGAGGGCCUGUAGAUAACCCUUCCAUUUCCUUCAUCUCAUCCAGUCUGUAGGGAUACAUUUUUC` is recorded as 0.742.

Set 2
Target: POU, POU domain (Salpingoeca helianthica)
Technique: Spec-seq
Molecule type: double-stranded DNA, one strand shown
Medium: in vitro
Tested at: not given
Setting: whole probe, mean of replicates
Reference: not given
Direction: lower = stronger binding
Shared flanks, not repeated: GAGTCGTCTCGTCAGCAC … CCGTAGAGCACTCAGGTC
Target sequence (chain): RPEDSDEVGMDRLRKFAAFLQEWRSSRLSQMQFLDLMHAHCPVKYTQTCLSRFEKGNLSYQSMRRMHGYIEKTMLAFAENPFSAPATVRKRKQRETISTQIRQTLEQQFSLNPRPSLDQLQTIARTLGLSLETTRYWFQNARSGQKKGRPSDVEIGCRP
`ATATGAAT` — result for “relative binding energy”: 1.07 ln ratio.
`ATGCGTTG` — result for “relative binding energy”: 1.34 ln ratio.
`TCTATAAT`: “relative binding energy” 0.371 ln ratio.
`ATGCCGGT`: “relative binding energy” 1.46 ln ratio.
For `ATACACAT`, “relative binding energy” read 1.16 ln ratio.
For `ATGCATGA`, “relative binding energy” read 1.18 ln ratio.
For `ATGCCACT`, “relative binding energy” read 1.23 ln ratio.
`GAGCTAAT`: “relative binding energy” 0.577 ln ratio.
`ATGACTAT` — result for “relative binding energy”: 1.21 ln ratio.
For `ATCCCGAT`, “relative binding energy” read 1.32 ln ratio.
For `ATCTCTAT`, “relative binding energy” read 1.17 ln ratio.
Under “relative binding energy”, `ATAGACAT` is recorded as 1.13 ln ratio.
`TGCATAAT`: “relative binding energy” 0.56 ln ratio.
For `CTGCTAAT`, “relative binding energy” read 0.697 ln ratio.
For `ATGCACTA`, “relative binding energy” read 1.14 ln ratio.
`ATTATCAT` — result for “relative binding energy”: 0.43 ln ratio.
Under “relative binding energy”, `GAGGTAAT` is recorded as 0.911 ln ratio.

Set 3
Target: RING finger protein unkempt homolog, zinc fingers 1-6, GST-SBP tag (UNK, Homo sapiens, UniProt Q9C0B0, residues 30-357)
UniProt Q9C0B0, sequence (30-357, looked up): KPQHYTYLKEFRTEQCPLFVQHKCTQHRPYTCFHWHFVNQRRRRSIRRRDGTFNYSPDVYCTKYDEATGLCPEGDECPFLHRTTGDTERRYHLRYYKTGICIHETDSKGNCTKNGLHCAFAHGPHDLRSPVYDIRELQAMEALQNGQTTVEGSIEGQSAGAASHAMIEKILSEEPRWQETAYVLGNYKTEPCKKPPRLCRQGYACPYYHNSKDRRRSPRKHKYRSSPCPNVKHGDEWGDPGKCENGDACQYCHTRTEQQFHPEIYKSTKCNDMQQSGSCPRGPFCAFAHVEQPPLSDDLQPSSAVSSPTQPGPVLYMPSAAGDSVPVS
Technique: RNA Bind-n-Seq
Molecule type: RNA
Medium: in vitro
Tested at: not given
Setting: RNA with constant flanks, human-mouse chimeric sites, ends assumed
Reference: input RNA pool
Direction: higher = stronger binding
Shared flanks, not repeated: GGGAGUUCUACAGUCCGACGAUC … CAACAGAGGAUUGAGCAUCA
`GACAGUGAAGAAGAGAUUAGAGAAGCAUUCCGUGUGUUUGAUAAGGAUGGCAAUGGCUAUAUUAGUGCUGCAGAACUUCGCCAUGUGAUGACAAACCUUGGCGAGAAGUUAACAGAUGAA` has a bound/input enrichment of 0.474 ratio.
The bound/input enrichment of `GACUUUGGGACUGGUCCUCGCAACGCAGCCUUCUAUAGCCCUCAUGGACAUAUAUUAGUGCUGGCUGGAUUUGGAAAUCUUCGAGGACAAAUGGAAGUGUGGGAUGUGAAAAACUACAAG` is reported as 0.367 ratio.
`CUCAUGGCUGCAGAAACAGGAAGUGGAAAAACUGGUGCAUUUAGUAUUCCCGUUAUCCAGAUAGUGUAUGAAACUCUGAAAGACCAACAGGAAGGCAAGAAAGGGAAAACAACUAUUAAA` has a bound/input enrichment of 0.76 ratio.
`CAUGUAUCUGCAGUACUUGAUGUGGAUUACUCUCCCACUGGGAAGGAAUUUGUGUCUGCCAGCUUUGAUAAGUCUAUUAGAAUCUUUCCUGUGGACAAGAGCCGAAGCAGGGAAGUGUAU` has a bound/input enrichment of 0.471 ratio.
With `AUAGAUGAAAUUGAUGUGGACCAGGAAGGAAUUGCUGAAAUGAUCCUGGAUGAAAAUGCUAUUGCUCAGGUCCCACGCCCUGGCACAUCUUUGAAACUCCCUGGCACUAACCAAACAGGA` the bound/input enrichment was 0.367 ratio.
With `UAUCCAACUUUCUUUCCACAUUUUGAAUUCCAAGACAUUAUUCCUCCAGAUGACUUCCUAACGAGUGAUGAAGAGCAAGAUUUGGUUUUAUUUGGAACUAUGAGAGGACAAGUUGUUGGA` the bound/input enrichment was 0.141 ratio.
`UCCUGGUCGUGUCCCAGUGCAGGACGAUGUGAACAAAAACUCAAAGCGGACCCUCUAUUGUAGUUCUUGAUUCUCGAGUGCCAUUAUUAUUGUUUGUCUUUUUUUUUUUUUUUUUAAAGA` has a bound/input enrichment of 1.55 ratio.
With `UAAAUUAGGGCUGCCGUUUUCUGUUUCGCCCUGAGCUGCAGACAGCUAGAAGAUUUUAUCUAGCUUAUACAAGGCUGCUGGUGUUCCCUCUUUUUUUCCACGAGGGUGUUUUUGGCUGCA` the bound/input enrichment was 0.52 ratio.

Set 4
Target: Histone acetyltransferase KAT6A, both winged helices, GST fusion (KAT6A, Homo sapiens, UniProt Q92794, residues 1-181)
Technique: protein binding microarray
Molecule type: double-stranded DNA, one strand shown
Medium: in vitro
Tested at: not given
Setting: 8-mer, flanks averaged, mean of 2 arrays, mostly near background
Reference: not given
Direction: higher = stronger binding
Construct (chain): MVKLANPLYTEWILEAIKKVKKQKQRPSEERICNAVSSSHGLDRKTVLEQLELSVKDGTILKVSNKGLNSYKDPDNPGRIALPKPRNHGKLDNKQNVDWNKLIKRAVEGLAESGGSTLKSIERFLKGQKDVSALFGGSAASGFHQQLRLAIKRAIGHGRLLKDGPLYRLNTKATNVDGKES
For `ACTAGCGG`, the E-score was 0.286.
`CTTAGTCC` has an E-score of -0.0784.
`AACTCCTT` has an E-score of -0.0226.
The E-score of `AAGCTGTG` is reported as -0.0432.
With `CCACTTGA` the E-score was -0.158.
With `CGTAAAAC` the E-score was 0.166.
With `AAACACCC` the E-score was 0.107.
With `ACTACTCG` the E-score was -0.0884.
`CCGTTGGA` has an E-score of 0.144.
`CCCTCCAA` has an E-score of -0.115.
The E-score of `GTGCCGAA` is reported as 0.155.
The E-score of `AGTTGAAC` is reported as -0.0436.
For `CGTACCTA`, the E-score was -0.0122.
For `CATTCATC`, the E-score was -0.159.
With `AGTGGTTG` the E-score was -0.189.
`GTATGTAA` gave an E-score of -0.0712.
`AGTACGTC` has an E-score of -0.0671.
`AAGAGATG` gave an E-score of -0.168.
`GCACCGTA` has an E-score of 0.21.
With `AGAGCAAA` the E-score was -0.241.
`ACCGGTAG` gave an E-score of 0.189.
The E-score of `AGTATATG` is reported as -0.0438.
`AATTCTAT` has an E-score of -0.135.
For `CCCATTTC`, the E-score was -0.224.
With `GCAAGAAC` the E-score was -0.00231.
